Measurements gathered from unrelated publications.
Numbered parts are unrelated; each lists some results of a single study. Substitutions count along the parent as printed.
Chain of UniProt P30530 (whole entry, looked up): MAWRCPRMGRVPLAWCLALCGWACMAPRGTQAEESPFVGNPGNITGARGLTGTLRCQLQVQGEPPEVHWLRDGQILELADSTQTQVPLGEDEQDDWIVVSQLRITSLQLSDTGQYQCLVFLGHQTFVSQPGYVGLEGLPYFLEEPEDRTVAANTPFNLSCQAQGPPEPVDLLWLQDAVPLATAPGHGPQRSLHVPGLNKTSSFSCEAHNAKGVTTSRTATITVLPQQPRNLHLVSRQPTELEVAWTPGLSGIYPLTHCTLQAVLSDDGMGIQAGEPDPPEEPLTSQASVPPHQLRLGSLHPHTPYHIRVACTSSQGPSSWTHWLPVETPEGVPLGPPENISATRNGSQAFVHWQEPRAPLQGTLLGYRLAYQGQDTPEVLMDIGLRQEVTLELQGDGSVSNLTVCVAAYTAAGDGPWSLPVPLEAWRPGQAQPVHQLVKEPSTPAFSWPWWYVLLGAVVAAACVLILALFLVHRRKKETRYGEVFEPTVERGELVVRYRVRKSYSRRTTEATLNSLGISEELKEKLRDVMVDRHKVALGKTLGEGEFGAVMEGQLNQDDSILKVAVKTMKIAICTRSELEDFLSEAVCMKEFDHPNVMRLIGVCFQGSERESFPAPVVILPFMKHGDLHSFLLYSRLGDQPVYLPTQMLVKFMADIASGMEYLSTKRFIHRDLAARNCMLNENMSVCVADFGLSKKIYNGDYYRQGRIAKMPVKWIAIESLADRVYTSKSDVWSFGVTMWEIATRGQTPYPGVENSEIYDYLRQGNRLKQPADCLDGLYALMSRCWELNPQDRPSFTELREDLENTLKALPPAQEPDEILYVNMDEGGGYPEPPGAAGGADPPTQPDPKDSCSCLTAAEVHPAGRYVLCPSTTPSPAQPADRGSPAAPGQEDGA

Block 1 — technique: RNA Bind-n-Seq; form: RNA; medium: in vitro; concentration: 200 nM; notes: whole 134-nt RNA, ends assumed; with: 150 mM LiCl; reference: input library; reading: higher = stronger binding; each molecule: 7-deaza-guanosine replaces G
Target: Ras GTPase-activating protein-binding protein 1, full length (G3BP1, Homo sapiens, UniProt Q13283)
Chain of UniProt Q13283 (whole entry, looked up): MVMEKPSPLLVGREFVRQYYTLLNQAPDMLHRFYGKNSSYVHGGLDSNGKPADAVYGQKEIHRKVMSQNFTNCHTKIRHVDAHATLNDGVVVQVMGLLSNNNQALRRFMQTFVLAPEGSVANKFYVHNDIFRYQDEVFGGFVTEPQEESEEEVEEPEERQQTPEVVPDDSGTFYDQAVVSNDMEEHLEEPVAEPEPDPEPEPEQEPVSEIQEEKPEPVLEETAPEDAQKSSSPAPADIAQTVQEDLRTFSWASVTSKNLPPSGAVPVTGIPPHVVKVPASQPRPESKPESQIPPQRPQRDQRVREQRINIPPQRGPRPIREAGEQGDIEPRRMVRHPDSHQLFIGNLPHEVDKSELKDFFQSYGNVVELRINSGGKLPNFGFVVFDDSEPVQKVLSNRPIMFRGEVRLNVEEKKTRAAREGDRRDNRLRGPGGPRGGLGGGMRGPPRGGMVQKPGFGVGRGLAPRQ
All sequences stand within: GGGAGUUCUACAGUCCGACGAUC … UGGAAUUCUCGGGUGUCAAGG
`UCCUGUGCUACACAUCGUAUGUACCGAAUCGGGGAAAAAGGGAAAAAGGGAAAAAGGGGAAAGUAUUAUGUUACGCCGUUCGGAUCUGCA` has a log2 enrichment of -0.21.
For `UAACUUUAGAGGAGGAUCUGAUGGAUAUGGCAGUGGACGUGGAUUUGGGGAUGGCUAUAAGGGGUAUGGAGGAGGACCUGGAGGUGGCAA`, the log2 enrichment was -0.0302.
`UCAAGUCCUGUGCUACACAUCGUAUGUACCGAAUCGGGUUUUUGGGUGGGAGGGAAAGUAUUAUGUUACGCCGUUCGGAUCUGCACUUCC` gave a log2 enrichment of -0.64.
`AGUCCUGUGCUACACAUCGUAUGUACCGAAUCGGGUUUUUUUGGGAAAGGGAAAGGGAAAGUAUUAUGUUACGCCGUUCGGAUCUGCACU` gave a log2 enrichment of -1.27.
For `UAACUUUAGAGGAGGAUCUGUUGGAUAUGGCAGUGGACGUGGAUUUGGGGAUGGCUAUAAUGGGUAUGGAGGAGGACCUGGAGGUGGCAA`, the log2 enrichment was 0.114.
With `GCAGGAGGUAAAAACAAAUGGAAAUGCUUCGGAUAGUGGCAGGGGUGGGGGUUGCUAAGGAAAGGGUGGGAUGGGAGUGGGUAAAGAGUU` the log2 enrichment was -0.185.
The log2 enrichment of `UAACUUUAGAGGAGGAUCUGAUGGAUAUGGCAGUGGACGUGGAUUUGGGGAUGGCUAUAAUGGGUAUGGACGAGGACCUGGAGGUGGCAA` is reported as -0.107.
`UUUAAUGUCUGCGGCACAAUGCCUGUCUGUGGGACCAUCCUGGGAAAACCUGCUUCUGGCUGUGAGGCAGAAACCCAAACUGAAGAGCUC` gave a log2 enrichment of 0.589.

Block 2 — technique: RNAcompete; form: RNA; medium: in vitro; concentration: 20 nM; notes: 7-mer, probes averaged, single round; reference: mean of 7-mers; reading: higher = stronger binding
Target: PABPC1L2, full length, GST fusion (mouse, UniProt A0ABA7IW68)
Target sequence (chain): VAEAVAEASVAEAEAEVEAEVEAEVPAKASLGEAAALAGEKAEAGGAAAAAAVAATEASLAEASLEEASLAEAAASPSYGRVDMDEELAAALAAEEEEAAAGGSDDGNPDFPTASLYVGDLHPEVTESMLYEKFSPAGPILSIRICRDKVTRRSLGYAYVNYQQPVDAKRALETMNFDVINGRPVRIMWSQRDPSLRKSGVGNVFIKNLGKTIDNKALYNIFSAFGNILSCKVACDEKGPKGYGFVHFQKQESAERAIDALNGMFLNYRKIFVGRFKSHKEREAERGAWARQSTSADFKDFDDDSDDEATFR
For `UAUUCUG`, the 7-mer Z-score was -0.342.
With `UGUAACU` the 7-mer Z-score was -0.258.
`UGAAGCC` gave a 7-mer Z-score of -0.121.
`AACUACA` gave a 7-mer Z-score of 0.244.
The 7-mer Z-score of `GGCCGCU` is reported as -0.235.
The 7-mer Z-score of `UCUUUAG` is reported as -0.0591.
The 7-mer Z-score of `CUGCAAA` is reported as 0.35.
`CUACGCU` gave a 7-mer Z-score of -0.267.

Block 3 — target: CCND1, cyclin fold, Cln2 fusion (human); technique: yeast growth competition, sequencing; medium: yeast; notes: weak parent motif; reference: not given; reading: higher = stronger binding
Starting sequence: BRCA2 docking peptide (human); PSIKRNLLNEFDR
For `PSIKRHLLNEFDR [N6H]`, “normalised enrichment score” read 0.0207.
`PSIKRNLLSEFDR [N9S]`: “normalised enrichment score” 0.764.
`PSIKRMLLNEFDR [N6M]`: “normalised enrichment score” -0.076.
`PSIKRNWLNEFDR [L7W]` — result for “normalised enrichment score”: -0.057.
`PSIKRYLLNEFDR [N6Y]`: “normalised enrichment score” 0.114.
`PSIKRNLLNEVDR [F11V]`: “normalised enrichment score” 0.786.
Under “normalised enrichment score”, `PSIKRNLLEEFDR [N9E]` is recorded as 0.641.
Under “normalised enrichment score”, `PSIKRNELNEFDR [L7E]` is recorded as -0.202.

Other studies, line by line
`CCC(=O)Nc1ccc2ncnc(Nc3cccc(Br)c3)c2c1` has a remaining activity of 126% (Tyrosine-protein kinase receptor UFO (AXL, Homo sapiens, UniProt P30530); enzyme activity, inhibitor; 0.5 µM; reference: control).

Excerpt of the above (block 3):
`PSIKRNLLNEVDR [F11V]`: “normalised enrichment score” 0.786.
`PSIKRNLLSEFDR [N9S]`: “normalised enrichment score” 0.764.
Under “normalised enrichment score”, `PSIKRNLLEEFDR [N9E]` is recorded as 0.641.
